Measurements gathered from unrelated publications.
Parts stem from different laboratories: compare values within a part only. Substitutions count along the parent as printed.

Series 1
Target: RNA binding protein fox-1 homolog 2, RRM domain, GST-SBP tag (RBFOX2, Homo sapiens, UniProt O43251-10, residues 100-194)
Technique: RNA Bind-n-Seq
Molecule type: RNA
Matrix: in vitro
Concentration: 365 nM
Setting: natural RNA segment, single round, ends assumed
Relative to: no-protein control
Direction: higher = stronger binding
All sequences stand within: GGGAGUUCUACAGUCCGACGAUC … UGGAAUUCUCGGGUGCCAA
Residues (chain): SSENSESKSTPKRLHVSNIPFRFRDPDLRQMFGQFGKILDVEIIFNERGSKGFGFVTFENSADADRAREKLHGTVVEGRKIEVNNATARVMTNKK
| Oligonucleotide | RBNS enrichment (R) |
| --- | --- |
| CUUUCUGUCAAUUUUGUUGUUGUUGUUGUUUUUCAUUUUCUUUUUUUCUCUUGACUCCUCCUUUUAGGAUGUCCAGAUGUAAAAAAAAAAAAAAAAAAAAGAAAAAAAGA | 1.11 |
| UCAGAUUUAGAAAUGUUUUUAAGAGCUAUGUGAAAACAGACAAUAUUAGUUUAGGUCGGGAACUGAGAUAUUGUAAUCAAAUAGUUAACAUCAGGAAGUUAAUUUGGCUG | 1.23 |
| UUUCCACCUCACUGUCUCCAUCCUCCACCUCUGAGAUGGACACUUAAGAGACGGGGCAAAUGUGGAUCCAAGAAACCAGGGCCAUGACCGGGUCCACUGUGGAGCAGCCA | 0.252 |
| CAUUUCUAUCAUGCAUUCCGAUGUCAUGGCAGAAAAUUUUGAAGAUAAAAAAAUAAGAUAAUCAAAAUGUUUCCUUUGCCUUUGUUUGGUCUUGGUUGUCGGAGACAGUC | 0.731 |
| AUAUAUACCUUGGAGUCCCAUACACUUAGGAAACUCCAAGGAGACACGUCCUGCUCAUCCCCGCCCCCACCCAAAGUAAAAACACAAUACUGAAUAAACGUGGCUUGAGU | 0.347 |
| CGCAGCUGCCCACACGCAAGGUCAUGGCCCCAGCGGCCCCGGCACAUGGAGUGGUUCAGCGCGGCCUGGGUGCCUGGCGGACAGAACUUCAGAGACCACGCAGCCUUCCU | 0.417 |
| UCUUGUCAGAAGUGUCACUGCCAAGGGACCAGAGAGAGGCUGCUAAGAGCCUGGACAUGCCUACCCUGAAAGCAGCUGCCUUCAUUACCCUUUUCUGUGCGCCUGUUCUG | 0.431 |
| AUGCUCGAAAGUCAGUGAAAGCUAUGCCUUCUCAUGCUAGCCCAGCCCAGCCCACCCUGCGACUGGUUCUUGGUUUAAUAAACACAUGUAAGAGUUCUUUCCACCACUGA | 0.311 |
| AUGGUGUAUCUCUCUGUGUAAUGGUGAGCCAUGCUGCAAGGUUGUAGCCUUGGCCCGAAGACAGAAAAUUCUCUCUGCCCUGCUGUAUCAUAAAGCACACACUUAGUGCC | 0.216 |
| UCCAAAUGACCUCUAUCAGCUGUUGAGUCAGACAGAUCCACGGACAUGUCUACCAAAAAAUGAUGUGGAGGUUUAGGUGGGAUUCACCCUUAGUACAAUUCUUAGUGUCA | 0.361 |
| CAUUUAGCCUGAUUUUCCAACGUCAUUGGUGACAGGCCAAGGCCACUAUGUUAUUUCCUUUGUUCUGGUAUCCUUCCCUUGGAGGACCUUCUCUGAGUAGUGGCUCCCCA | 0.321 |
| AAGUAACUAAAUAGACUGCGGCACUUUUUUGCUUUAAACUAGAUCAUCUUAGAUUUGUCGAUACCUUCGAAAUUUGAUGGUUUCAUCCCAAAUGACUGCACUAUAUGUAU | 1.72 |

Series 2
Target: Prothrombin, mature alpha-thrombin (F2, Homo sapiens, UniProt P00734)
Technique: aptamer microarray, sandwich
Molecule type: DNA with 2'F-ANA
Matrix: in vitro
Concentration: 200 nM
Setting: whole 15-mer aptamer, many near background
Together with: Cy3 exosite-II aptamer, 400 nM
Direction: higher = stronger binding
Oligonucleotide: GGTTGGTGTGGTTGG
| Modification | mean fluorescence intensity |
| --- | --- |
| 2'F-ANA at 1 2 3 5 6 8 9 10 11 12 14 15 | 62.4 a.u. |
| 2'F-ANA at 3 7 10 14 15 | 537 a.u. |
| 2'F-ANA at 2 3 5 6 7 | 99.6 a.u. |
| 2'F-ANA at 1 2 3 5 6 9 10 11 12 13 | 52.2 a.u. |
| 2'F-ANA at 1 4 5 6 7 8 10 11 13 | 54.1 a.u. |
| 2'F-ANA at 1 2 5 8 11 12 | 92.8 a.u. |
| 2'F-ANA at 1 5 7 8 10 14 15 | 50.7 a.u. |
| 2'F-ANA at 3 4 5 6 7 10 11 13 14 15 | 124 a.u. |
| 2'F-ANA at 2 3 5 7 9 10 15 | 68 a.u. |
| 2'F-ANA at 2 6 8 12 14 15 | 177 a.u. |
| 2'F-ANA at 1 2 4 6 8 9 12 | 252 a.u. |

Series 3
Target: CCND2, cyclin fold, Cln2 fusion (human)
Technique: yeast growth competition, sequencing
Matrix: yeast
Setting: weak parent motif
Relative to: not given
Direction: higher = stronger binding
Starting sequence: PKMYT1 docking peptide (human); SFEPRNLLSLFED; partner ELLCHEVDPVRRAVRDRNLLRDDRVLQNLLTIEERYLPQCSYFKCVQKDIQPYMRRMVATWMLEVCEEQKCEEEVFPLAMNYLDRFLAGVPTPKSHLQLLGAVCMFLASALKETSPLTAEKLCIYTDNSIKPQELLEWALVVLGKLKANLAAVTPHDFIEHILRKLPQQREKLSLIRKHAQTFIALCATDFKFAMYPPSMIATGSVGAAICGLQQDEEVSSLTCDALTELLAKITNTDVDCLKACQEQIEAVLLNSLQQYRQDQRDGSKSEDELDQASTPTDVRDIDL
| Change | normalised enrichment score |
| --- | --- |
| F11M | 0.00361 |
| L7M | -0.0758 |
| F2C | 0.142 |
| L7N | -0.0235 |
| P4Y | 0.18 |
| N6C | 0.222 |
| N6G | 0.361 |
| F11V | -0.146 |
| L8F | 0.116 |

Further values, each from its own experiment
| Molecule | target | test | test system | conditions | scale | quantity | result |
| --- | --- | --- | --- | --- | --- | --- | --- |
| PhoQ, residues 284 288 289 292 302 303 SCEHLI | PhoP, residues 12 14 15 18 19 VQALL (Escherichia coli, UniProt P23836) | Sort-seq, item: YFP reporter | E. coli | PhoQ-PhoP variant library, together with: 10 µM Mg2+ | relative to: high Mg2+ state, higher = stronger signaling | fold induction | 11 |
